Published values pooled from the literature.
Each numbered part is a random draw from the data of one study; scales do not carry over between parts.

Sample 1
Target: Histone acetyltransferase KAT6A, winged helix 1, GST fusion (KAT6A, Homo sapiens, UniProt Q92794, residues 1-85)
Method: protein binding microarray
Form: double-stranded DNA, one strand shown
Medium: in vitro
Concentration: not given
Setting: 8-mer, flanks averaged, mean of 2 arrays, mostly near background
Relative to: not given
Direction: higher = stronger binding
Construct (chain): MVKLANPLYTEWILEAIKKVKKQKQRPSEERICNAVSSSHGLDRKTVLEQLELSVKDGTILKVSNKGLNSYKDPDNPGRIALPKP
With `CTAATTAG` the E-score was -0.108.
For `ATTGCTTC`, the E-score was -0.0498.
`ATCAGTCC` gave an E-score of -0.124.
`GGTAAGCA` gave an E-score of -0.0646.
`CGATGAAA` gave an E-score of -0.0237.
With `AAAAAACC` the E-score was -0.133.
With `ATGTCGTA` the E-score was -0.182.
With `CGGGACCC` the E-score was 0.336.
`CTGTTTAC` gave an E-score of -0.057.
For `AGCAATAT`, the E-score was -0.193.
`AACCGTCG` gave an E-score of 0.397.
For `ATATGCTC`, the E-score was -0.0381.
`CTACGAAG` gave an E-score of -0.224.
With `CCAATAAA` the E-score was -0.0903.
`CATAACGC` has an E-score of 0.11.
For `AGGGTCTG`, the E-score was -0.166.
`CCACGAGC` has an E-score of -0.0136.
`GAGCGTCC` gave an E-score of 0.0782.
The E-score of `AATAAAGA` is reported as -0.183.
The E-score of `ACGCCACG` is reported as 0.18.
`AGCTAAAG` gave an E-score of -0.24.
The E-score of `ATGCGATC` is reported as -0.0233.
With `GCCCAAAC` the E-score was 0.0457.
The E-score of `GTCGGAGA` is reported as 0.183.

Sample 2
Target: Sal-like protein 4, full length isoform B (SALL4, Homo sapiens, UniProt Q9UJQ4-2, residues 1-616)
Method: universal PBM
Form: double-stranded DNA, one strand shown
Medium: in vitro
Concentration: not given
Setting: 8-mer, flanks averaged, mean of replicates
Direction: higher = stronger binding
`ACACAGCT` has an E-score of -0.097.
`ACGCGTGG` gave an E-score of -0.153.
With `AAGGCATT` the E-score was -0.00876.
With `AGTCAGCG` the E-score was -0.316.
`ATCTCGGG` gave an E-score of -0.159.
The E-score of `CGCGCTCA` is reported as -0.125.
With `CAAGGTCA` the E-score was -0.0773.
`ATCCCACC` has an E-score of -0.273.
The E-score of `CTTTGTCA` is reported as 0.141.
With `CAATACCC` the E-score was 0.041.
With `GACAACAC` the E-score was -0.006.
With `TCACGTAA` the E-score was 0.176.
`GCTCCCCC` gave an E-score of -0.293.
The E-score of `CCTCAGGA` is reported as -0.213.
`ATATGGGA` has an E-score of 0.19.
The E-score of `CGCAGACG` is reported as -0.138.
`ATGACCCA` has an E-score of 0.148.
`AAAATTGC` gave an E-score of 0.311.
The E-score of `AACCCCAT` is reported as -0.0345.
`ATCGATGC` gave an E-score of 0.0519.
`AAATTAGC` has an E-score of 0.104.
`ATCACGTG` gave an E-score of -0.0283.
With `CTATCCAC` the E-score was -0.014.
The E-score of `CACGTCAG` is reported as -0.169.
`ACTGACTC` gave an E-score of -0.103.

Sample 3
Target: RNA binding protein fox-1 homolog 2, RRM domain, GST-SBP tag (RBFOX2, Homo sapiens, UniProt O43251-10, residues 100-194)
Method: RNA Bind-n-Seq
Form: RNA
Medium: in vitro
Concentration: 365 nM
Setting: natural RNA segment, single round, ends assumed
Relative to: no-protein control
Direction: higher = stronger binding
Residues (chain): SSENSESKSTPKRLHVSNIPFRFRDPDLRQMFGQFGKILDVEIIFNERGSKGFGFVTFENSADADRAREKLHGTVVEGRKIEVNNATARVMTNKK
Under “RBNS enrichment (R)”, `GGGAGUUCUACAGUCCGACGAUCUGAAGGAGACGCGGGAGCCCACGGAGAACGCUCCAGGAGGGCCUGUCCAUCCUCGCUGUCCUUUCCCUGUUCUCCCCCUGCCCCCCGUCUCUAUCCUCUGUGGCCUUCAGUGGAAUUCUCGGGUGCCAA` is recorded as 0.284.
For `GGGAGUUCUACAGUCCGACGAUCCCCUACGCCCUUUUUGGUACACUUAGAAGUUUUCCUUUUCCAUCAAUGGUACUGUUUCUUAGUGUUUUCAAUUGGAACAUAUCUUGUCUCACAGAGCUUUAAAUUAUUCUUGGAAUUCUCGGGUGCCAA`, “RBNS enrichment (R)” read 0.416.
Under “RBNS enrichment (R)”, `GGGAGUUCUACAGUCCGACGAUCAACAAGGACAGUCAGGGUGAAACUUCUUUUGCCAGAAGUGUGGCCUGAGUUGAAUUUCUGGGAGGAUGACGCAGAUGUCUGCUGCAGAGCUGGGCUGAGAGUUCUGCAGUUGGAAUUCUCGGGUGCCAA` is recorded as 1.02.
`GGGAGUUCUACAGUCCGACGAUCAUGCAGAAGGUCUGAUUCCAGAUCGUACCUAAGCAAGACAAUGCUCCAAGACUGUACCAAGCCAAGCUCUGAUAAGCUUCCAUCUUCCAUGGCUGGUAGACUGAACUGUCUGGAAUUCUCGGGUGCCAA`: “RBNS enrichment (R)” 0.247.
`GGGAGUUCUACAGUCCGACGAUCCAAACAGGAAGUGUUUUCAGGCCCUUACAUGCUUAUCCUUAAGGUGAGUAGGUAUCUCAGCAGCACACCCGAACAGUAAAGGUGAUCAAUAACGAAACUGUAGUUUUCAGUGGAAUUCUCGGGUGCCAA` — result for “RBNS enrichment (R)”: 0.284.
For `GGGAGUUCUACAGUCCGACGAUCUUAAUCUACAGCCACUCUCUACCUUGAGUCUAUCUAUGGUCAGUUGAAGAGUUUUAGAAGAAAUUCUCAUGGAAAUGCCCUAUCCCUGGACCUUCAGCCUCUUCUCUUCCUGGAAUUCUCGGGUGCCAA`, “RBNS enrichment (R)” read 0.428.
`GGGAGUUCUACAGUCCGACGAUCGAAGUAUGGGUUCUCUCAGAGGAAAGGUUAUGAAAUUCUGUUGUGUGCAUAGUAAGACUGCCUGGCUAAAUUAGGCCUCACUGGCGAUAGAACAGACUUACUGAAGUUUAUGGAAUUCUCGGGUGCCAA` — result for “RBNS enrichment (R)”: 0.874.
`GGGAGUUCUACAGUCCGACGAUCUGGAUAUCCUCAAUUCUUAAGACAGCUUGUAAAUGUAUUUGUAAAAAUUGUAUAUAUUUUUACAGAAAGUCUAUUUCUUUGAAACGAAGGAAGUAUCGAAUUUACAUUAGUGGAAUUCUCGGGUGCCAA`: “RBNS enrichment (R)” 0.396.

Sample 4
Target: Ras GTPase-activating protein-binding protein 1, RRM domain (G3BP1, Homo sapiens, UniProt Q13283)
Sequence of UniProt Q13283 (whole entry, looked up): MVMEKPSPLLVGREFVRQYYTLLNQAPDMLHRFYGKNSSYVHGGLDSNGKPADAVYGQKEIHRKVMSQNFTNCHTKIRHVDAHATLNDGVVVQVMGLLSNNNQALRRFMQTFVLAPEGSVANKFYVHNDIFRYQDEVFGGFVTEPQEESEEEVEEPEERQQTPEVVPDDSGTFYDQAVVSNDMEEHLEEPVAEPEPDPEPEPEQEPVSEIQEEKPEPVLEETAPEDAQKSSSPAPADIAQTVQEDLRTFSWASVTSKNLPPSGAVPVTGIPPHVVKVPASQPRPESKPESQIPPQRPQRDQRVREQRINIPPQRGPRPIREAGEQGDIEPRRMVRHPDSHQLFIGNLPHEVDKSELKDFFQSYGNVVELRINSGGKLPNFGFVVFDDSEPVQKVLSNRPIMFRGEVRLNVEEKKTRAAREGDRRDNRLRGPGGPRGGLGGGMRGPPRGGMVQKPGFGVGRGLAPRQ
Method: RNA Bind-n-Seq
Form: RNA
Medium: in vitro
Concentration: 1 µM
Setting: whole 134-nt RNA, ends assumed
With: 150 mM KCl
Relative to: input library
Direction: higher = stronger binding
With `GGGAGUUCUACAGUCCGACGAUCAAGUCCUGUGCUACACAUCGUAUGUACCGAAUCGGCCCCGGCCCCGGGGCCCCGGGGAAAGUAUUAUGUUACGCCGUUCGGAUCUGCACUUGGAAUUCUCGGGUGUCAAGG` the log2 enrichment was -0.628.
`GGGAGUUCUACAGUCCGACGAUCCCUGUGCUACACAUCGUAUGUACCGAAUCGGUUUUUUGGGGUUUUUUGGGGUUUUUUGGGGAAAGUAUUAUGUUACGCCGUUCGGAUCUGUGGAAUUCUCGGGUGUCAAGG` has a log2 enrichment of -0.263.
`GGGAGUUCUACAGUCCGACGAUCGCAGGAAGUAAAACCAAAUGGAAAUGCUUCGGAUAGUGGCAGGGGUGGGGGUUGCUAAGGAAAGGGUGGGAUGGGAGUGGGUAAAGAGUUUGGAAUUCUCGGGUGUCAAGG` gave a log2 enrichment of 1.19.
For `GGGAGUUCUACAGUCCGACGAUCAAGUCCUGUGCUACACAUCGUAUGUACCGAAUCGGUUUUUUUGGUUUGGUUUUUGGAAAGUAUUAUGUUACGCCGUUCGGAUCUGCACUUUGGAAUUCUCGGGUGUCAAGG`, the log2 enrichment was -0.418.
`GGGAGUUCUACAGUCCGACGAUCCUCAAGUCCUGUGCUACACAUCGUAUGUACCGAAUCGGUUGGGUUGGGUUGGGAAAGUAUUAUGUUACGCCGUUCGGAUCUGCACUUCCAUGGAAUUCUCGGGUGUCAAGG` has a log2 enrichment of 0.0942.
With `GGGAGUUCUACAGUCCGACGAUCACCAUGCAGGUGGGCAUCUUUGGGAAGUGGGGCAAGGGGGGGGUAGGGAGGGGGGUAACACUUUGGGAACAGGUGGUCCCAGGUCGUUUCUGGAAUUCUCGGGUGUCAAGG` the log2 enrichment was 0.856.
For `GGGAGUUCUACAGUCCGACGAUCUAACUUUAGAGGAGGAUAUGAUGGAUAUGGCAGUGGACGUGGAUUUGGGGAUGGCUAUAAUGGGUAUGGAGGAGGACCUGGAGGUGGCAAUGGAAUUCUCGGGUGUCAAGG`, the log2 enrichment was -0.896.
With `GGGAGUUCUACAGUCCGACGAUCGCAGGAAGUAAAAACAAAUGGAAAUGCUUCGGGUAGUGGCAGGGGUGGGGGUUGCUAAGGAAAGGGUGGGAUGGGAGUGGGUAAAGAGUUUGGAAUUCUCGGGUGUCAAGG` the log2 enrichment was 0.939.
`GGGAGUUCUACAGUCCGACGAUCCAAGUCCUGUGCUACACAUCGUAUGUACCGAAUCGGAAAAAAAGGUUUUUGGAGGAAAGUAUUAUGUUACGCCGUUCGGAUCUGCACUUCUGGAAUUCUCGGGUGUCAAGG` gave a log2 enrichment of -0.257.
